{"data": "Experimental data of several laboratories", "target": "Tyrosine-protein kinase receptor Tie-1 (TIE1, Homo sapiens, UniProt P35590)", "note": "Each line is one published result; not all experiments were run side by side."}
{"Compound": "CNC(=O)C1CCN(c2cc(C)c(F)cc2NC(=O)c2ccc(-c3cc(O)ccc3C)c(C)c2)CC1", "observed": "binding", "technique": "competition with immobilised ligand", "tested at": "1 µM", "remaining binding [%]": 80}
{"Compound": "CCN1CCN(Cc2ccc(NC(=O)c3ccc(C)c(NC(=O)c4cncc(-c5cccs5)c4)c3)cc2C(F)(F)F)CC1", "observed": "binding", "technique": "competition with immobilised ligand", "tested at": "1 µM", "remaining binding [%]": 6.3}
{"Compound": "CNC1C[S+]2CC[S+]3CC[S+](C1)[Ru-4]321([N]=C=S)[n]2c3ccc(OC)cc3c3c4c(c5cc(F)c[n+]1c5c32)C(=O)NC4=O (centres unmarked)", "technique": "KinomeScan", "tested at": "0.1 µM", "relative to": "untreated", "remaining binding [%]": 100}
{"Compound": "COc1cc(Nc2nccc(-c3cnn4nc(OC)ccc34)n2)cc(C(F)(F)F)c1", "observed": "binding", "technique": "competition with immobilised ligand", "tested at": "1 µM", "remaining binding [%]": 87}
{"Compound": "CCN1CCN(Cc2ccc(NC(=O)c3ccc(C)c(NC(=O)c4cncc(-c5cnn(C)c5)c4)c3)cc2C(F)(F)F)CC1", "observed": "binding", "technique": "competition with immobilised ligand", "tested at": "1 µM", "remaining binding [%]": 8.4}
{"Compound": "CCN1CCN(Cc2ccc(C(=O)Nc3ccc(C)c(NCc4cnc5[nH]ccc5c4OC)c3)cc2C(F)(F)F)CC1", "observed": "binding", "technique": "competition with immobilised ligand", "tested at": "1 µM", "remaining binding [%]": 3.6}
{"Compound": "Nc1ncc2c(n1)-c1c([nH]c3ccc(C4=CCOCC4)cc13)CCC2", "observed": "binding", "technique": "competition with immobilised ligand", "tested at": "1 µM", "remaining binding [%]": 100}
{"Compound": "Cc1ccc(-c2c(/C=C(\\C#N)C(=O)NC(C)C)n(CCCO)c3ncnc(N)c23)cc1", "observed": "cell-free assay", "technique": "competition with immobilised ligand", "tested at": "1 µM", "remaining binding [%]": 100}
{"Compound": "COc1cc(Nc2nc(C)cc(-c3cnn4nc(OC)ccc34)n2)cc(C(F)(F)F)c1", "observed": "binding", "technique": "competition with immobilised ligand", "tested at": "1 µM", "remaining binding [%]": 84}
{"Compound": "C=CC(=O)N1CCCC(n2c(=O)c3ncccc3n(Cc3ccc(Oc4ccccc4)cc3)c2=O)C1 (centres unmarked)", "observed": "cell-free assay", "technique": "competition with immobilised ligand", "tested at": "1 µM", "remaining binding [%]": 95}
{"Compound": "COc1c(Cl)cccc1Nc1c(-c2ccncc2C#C[C@@]2(C)CCCN2C(=O)/C=C/CN(C)C)[nH]c2c1C(=O)NCC2", "observed": "cell-free assay", "technique": "competition with immobilised ligand", "tested at": "3 µM", "remaining binding [%]": 100}
{"Compound": "CC(C)=CC1OC(C)(C)C2C=C3C(=O)C(Cl)=CC(O)C3C3C(O)C4OC4C(=O)C132 (centres unmarked)", "observed": "cell-free assay", "technique": "competition with immobilised ligand", "tested at": "10 µM", "remaining binding [%]": 93}
{"Compound": "C=CC(=O)N1CCc2ccc(-n3c(=O)ccc4cnc5ccc(-c6cnn(C)c6)cc5c43)cc21", "technique": "KINOMEscan", "tested at": "1 µM", "relative to": "DMSO control", "remaining binding [%]": 100}
{"Compound": "Cc1cnc2nc1Nc1cccc(c1)COC/C=C/COCc1cc(ccc1OCCN1CCOCC1)N2", "observed": "binding", "technique": "competition with immobilised ligand", "tested at": "0.1 µM", "remaining binding [%]": 83}
{"note": "Some of these lines once more:"}
{"Compound": "CNC(=O)C1CCN(c2cc(C)c(F)cc2NC(=O)c2ccc(-c3cc(O)ccc3C)c(C)c2)CC1", "observed": "binding", "technique": "competition with immobilised ligand", "tested at": "1 µM", "remaining binding [%]": 80}
